Published values collected from several papers.
Numbered parts are unrelated; each lists some results of a single study.

Study 1
Target: Interferon regulatory factor 3, full length, phosphomimetic (IRF3, Homo sapiens, UniProt Q14653, residues 1-427, S386D/S396D/S398D/S402D/T404D/S405D)
Technique: protein-binding microarray
Form: double-stranded DNA, one strand shown
Matrix: in vitro
Concentration: 2540 nM top
Notes: 60-bp whole probe
Together with: salmon DNA 0.4 mg/ml
Relative to: random background probes
Direction: higher = stronger binding
Shared flanks, not repeated: GCCTAGCAC … GTCTTGATTCGCTTGACGCTGCTG
Construct (chain): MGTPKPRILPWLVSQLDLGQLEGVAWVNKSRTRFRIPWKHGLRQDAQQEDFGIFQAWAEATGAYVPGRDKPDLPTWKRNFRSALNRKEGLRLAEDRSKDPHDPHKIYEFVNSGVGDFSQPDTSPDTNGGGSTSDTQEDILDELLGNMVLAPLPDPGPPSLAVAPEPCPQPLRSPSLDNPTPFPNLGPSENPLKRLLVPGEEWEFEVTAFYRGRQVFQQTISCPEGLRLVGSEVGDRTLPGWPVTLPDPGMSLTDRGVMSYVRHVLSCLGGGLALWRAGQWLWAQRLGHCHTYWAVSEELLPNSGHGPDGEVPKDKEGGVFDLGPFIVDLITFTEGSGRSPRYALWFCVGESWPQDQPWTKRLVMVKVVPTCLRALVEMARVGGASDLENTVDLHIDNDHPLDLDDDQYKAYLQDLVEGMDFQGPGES
| Sequence | fitted relative affinity [z-score] |
| --- | --- |
| TTAGGACTACTTATCCTTTAGTGCTAG | 0.373 |
| TTAGAACTGAGACTGGAATAGTGCTAG | -0.265 |
| TTAGAACTGGGATTTCGATTAGTGCTA | -0.18 |
| ATTATGTTTGCTTTGTTCTGGTGCTAG | 0.499 |
| TTAGACCTGAGTCTCGATTAGTGCTAG | -0.544 |
| GACGGTTTCGGTTTCCGGACGTGCTAG | 10.5 |
| CACTCCACCTCTGTGCTCTTGTGCTAG | 0.425 |
| AACGAACTGGGGTTTCGAGACGTGCTA | 0.367 |
| TTCCATTTCTGTTTTTGCTTGTGCTAG | 4.84 |
| CCCAATTGTCTTTTCACTTTGTGCTAG | 1.78 |
| TTAGGTTTCCTTTTCGTTTAGTGCTAG | 11.8 |
| TTAGAACTGGCGTATCGATTAGTGCTA | -0.315 |
| TTAGGTCTCGGTATCGGGTAGTGCTAG | 1.39 |
| TTAGACCTCAGACTGGATTAGTGCTAG | -0.453 |
| GACGGTCTCGGTATCGGAACGTGCTAG | 3.05 |
| TCAATTATATCTGTGTTACTGTGCTAG | 0.368 |
| TTAGGTATCCTACTTCTTTAGTGCTAG | 4.03 |
| GACGGACTGATTTTCCTGACGTGCTAG | 0.203 |

Study 2
Target: Ras GTPase-activating protein-binding protein 1, RRM domain (G3BP1, Homo sapiens, UniProt Q13283)
Sequence of UniProt Q13283 (whole entry, looked up): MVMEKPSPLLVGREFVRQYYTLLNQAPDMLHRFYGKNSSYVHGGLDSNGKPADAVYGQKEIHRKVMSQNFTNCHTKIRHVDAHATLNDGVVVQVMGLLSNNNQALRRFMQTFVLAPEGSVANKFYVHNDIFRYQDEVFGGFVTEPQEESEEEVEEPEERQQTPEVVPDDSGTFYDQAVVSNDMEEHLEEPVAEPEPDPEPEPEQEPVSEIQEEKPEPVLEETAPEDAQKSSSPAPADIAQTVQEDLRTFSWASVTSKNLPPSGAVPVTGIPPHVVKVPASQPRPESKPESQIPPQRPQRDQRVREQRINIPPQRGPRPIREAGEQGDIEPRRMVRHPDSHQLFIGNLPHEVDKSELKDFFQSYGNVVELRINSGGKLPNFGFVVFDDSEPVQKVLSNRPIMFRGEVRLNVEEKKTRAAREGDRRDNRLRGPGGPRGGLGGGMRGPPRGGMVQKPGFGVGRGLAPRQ
Technique: RNA Bind-n-Seq
Form: RNA
Matrix: in vitro
Concentration: 1 µM
Notes: whole 134-nt RNA, ends assumed
Together with: 150 mM KCl
Relative to: input library
Direction: higher = stronger binding
Shared flanks, not repeated: GGGAGUUCUACAGUCCGACGAUC … UGGAAUUCUCGGGUGUCAAGG
| Sequence | log2 enrichment |
| --- | --- |
| UGGCCCUGGUGGCAUGCGGGGAGGAAGAGGUGGCCUCAUGGAUCGUGGUGGUCCCGGUGGAAUGUUCAGAGGUGGCCGUGCUGGAGACAG | 0.804 |
| GCCGGAAGUAAAAACAAAUGGAAAUGCUUCGGAUAGUGGCAGGGGUGGGGGUUGCUAAGGAAAGGGUGGGAUGGGAGUGGGUAAAGAGUU | 1.01 |
| UGGGAGGUGGAUUUUGUUUAUUUUUUUAGCUCAUUUCCAGGGGUGGGAAUUUUUUUUUAAUAUGUGUCAUGAAUAAAGUUGUUGUUGAAA | 1.79 |
| GUCCUGUGCUACACAUCGUAUGUACCGAAUCGGGAAAGGGAAAAAAAGGGAAAAAGGGAAAGUAUUAUGUUACGCCGUUCGGAUCUGCAC | 0.328 |
| UAGCCCUGGUGGCAUGCGGGGAGGAAGAGGUGGCCUCAUGGAUCGUGGUGGUCCCGGUGGAAUGUUCAGAGGUGGCCGUGGUGGAGACAG | 0.735 |
| UCCUCAAGUCCUGUGCUACACAUCGUAUGUACCGAAUCGGAGGAGGGAGGGAAAGUAUUAUGUUACGCCGUUCGGAUCUGCACUUCCAGC | -0.285 |
| CAAGUCCUGUGCUACACAUCGUAUGUACCGAAUCGGGAAAAGGAAAAGGAAAAGGGAAAGUAUUAUGUUACGCCGUUCGGAUCUGCACUU | -0.216 |
| UAACUUUAGAGGAGGAUCUGAUGGAUAUGGCAGUGGACGUGGAUUUGGGGAUGGGUAUAAUGGGUAUGGAGGAGGACCUGGAGGUGGCAA | -0.382 |
| CAAGUCCUGUGCUACACAUCGUAUGUACCGAAUCGGGGAGGGGAGGGGUUUGGGGAAAGUAUUAUGUUACGCCGUUCGGAUCUGCACUUC | 1.02 |
| AAGUCCUGUGCUACACAUCGUAUGUACCGAAUCGGGUUUUGGGGUUUUGGUUUUGGAAAGUAUUAUGUUACGCCGUUCGGAUCUGCACUU | -0.306 |
| UCCUCAAGUCCUGUGCUACACAUCGUAUGUACCGAAUCGGUGGUGGAAAGGAAAGUAUUAUGUUACGCCGUUCGGAUCUGCACUUCCAGC | -0.0785 |
| ACAAUGCAGGUGGGCAUCUUUGGGAAGUGGGGCAAGGGGGGGAUAGGGAGGGGGGUAACACUUUGGGAACAGGUGGUCCCAGGUCGUUUC | -0.53 |
| GUCCUGUGCUACACAUCGUAUGUACCGAAUCGGGGCCCCCGGGCCCCCGGGCCCCCGGGAAAGUAUUAUGUUACGCCGUUCGGAUCUGCA | -0.584 |
| UUCUCUUCACUCCCACCAGUGCGGGUGGUCUUUGCAGUGACUAUGGAAGGCAGUGCACGGAAAGUCAUCACUGUCCGGUCAGCCCUCAUU | -0.0618 |

Study 3
Target: Prothrombin, mature alpha-thrombin (F2, Homo sapiens, UniProt P00734)
Technique: aptamer microarray, sandwich
Form: DNA with 2'F-ANA
Matrix: in vitro
Concentration: 200 nM
Notes: whole 15-mer aptamer, many near background
Together with: Cy3 exosite-II aptamer, 400 nM
Direction: higher = stronger binding
Sequence: GGTTGGTGTGGTTGG
| Modification | mean fluorescence intensity [a.u.] |
| --- | --- |
| 2'F-ANA at 6 7 9 10 11 13 15 | 148 |
| 2'F-ANA at 1 2 4 5 14 | 48.7 |
| 2'F-ANA at 7 8 13 | 643 |
| 2'F-ANA at 2 8 11 13 14 15 | 124 |
| 2'F-ANA at 1 3 4 6 7 9 13 15 | 97.5 |
| 2'F-ANA at 3 4 9 10 11 13 14 15 | 177 |
| 2'F-ANA at 1 3 4 5 8 10 11 12 13 | 70.1 |
| 2'F-ANA at 1 2 3 4 5 9 11 15 | 54.5 |
| 2'F-ANA at 1 10 12 13 14 15 | 57.8 |
| 2'F-ANA at 2 4 5 6 7 8 11 12 14 | 53.6 |
| 2'F-ANA at 3 8 11 12 13 | 1230 |
| 2'F-ANA at 4 6 8 11 12 13 14 15 | 99.2 |
| 2'F-ANA at 2 3 6 8 9 10 12 14 15 | 221 |
| 2'F-ANA at 2 3 4 5 6 7 8 13 15 | 61.4 |
| 2'F-ANA at 1 2 5 6 7 9 14 | 51.6 |
| 2'F-ANA at 2 3 6 8 9 11 | 804 |
| 2'F-ANA at 2 3 6 8 9 12 13 15 | 757 |
| 2'F-ANA at 1 4 5 6 7 8 11 12 13 15 | 68.8 |
| 2'F-ANA at 1 5 7 9 10 11 14 | 46.5 |
| 2'F-ANA at 1 4 5 7 11 13 15 | 78 |
| 2'F-ANA at 3 4 7 8 11 15 | 665 |
| 2'F-ANA at 1 4 6 7 8 10 12 13 14 | 94.8 |
| 2'F-ANA at 1 4 5 7 9 11 12 13 14 15 | 76.7 |
| 2'F-ANA at 3 7 8 9 10 11 14 15 | 405 |
| 2'F-ANA at 3 4 6 7 9 10 12 15 | 271 |

Study 4
Target: Histone acetyltransferase KAT6A, both winged helices, GST fusion (KAT6A, Homo sapiens, UniProt Q92794, residues 1-181)
Technique: protein binding microarray
Form: double-stranded DNA, one strand shown
Matrix: in vitro
Concentration: not given
Notes: 8-mer, flanks averaged, mean of 2 arrays, mostly near background
Relative to: not given
Direction: higher = stronger binding
Construct (chain): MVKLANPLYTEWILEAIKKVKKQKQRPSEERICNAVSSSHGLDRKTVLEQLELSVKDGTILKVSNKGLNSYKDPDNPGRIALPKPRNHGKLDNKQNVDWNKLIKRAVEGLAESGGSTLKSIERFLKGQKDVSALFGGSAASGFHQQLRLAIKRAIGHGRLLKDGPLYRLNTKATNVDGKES
| Sequence | E-score |
| --- | --- |
| AAGAAAAC | -0.0988 |
| CGGAGCTA | -0.0581 |
| AACGAGAC | 0.0593 |
| GATTGAGC | 0.0263 |
| AATTGTCG | -0.0396 |
| TCCTTAAA | -0.192 |
| AGGTCGAG | -0.164 |
| CATCGGGA | 0.0347 |
| TCTTAAAA | -0.187 |
| TCGCCAAA | -0.0242 |
| AAAAATCA | -0.0501 |
| GGAGCCCA | -0.315 |
| ATTTGCTC | -0.139 |
| CGAGTCAC | -0.0128 |
| AGAAAGGG | -0.202 |
| AGGGACAG | -0.234 |
| ATATTATC | 0.0207 |
| GAAATAGC | 0.102 |
| GTCTCCAC | -0.106 |
| TCTGGACA | -0.0747 |

Study 5
Target: RING finger protein unkempt homolog, zinc fingers 1-6, GST-SBP tag (UNK, Homo sapiens, UniProt Q9C0B0, residues 30-357)
Sequence of UniProt Q9C0B0 (30-357, looked up): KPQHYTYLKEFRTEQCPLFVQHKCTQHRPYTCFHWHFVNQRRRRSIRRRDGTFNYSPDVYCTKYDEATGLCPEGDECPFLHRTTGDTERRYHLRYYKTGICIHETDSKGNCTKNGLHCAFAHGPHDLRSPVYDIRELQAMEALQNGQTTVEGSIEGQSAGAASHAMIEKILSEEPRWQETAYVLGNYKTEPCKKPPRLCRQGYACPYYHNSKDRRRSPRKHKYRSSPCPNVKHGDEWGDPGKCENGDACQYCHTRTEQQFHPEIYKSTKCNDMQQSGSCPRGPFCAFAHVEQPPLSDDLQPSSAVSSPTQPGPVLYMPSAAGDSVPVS
Technique: RNA Bind-n-Seq
Form: RNA
Matrix: in vitro
Concentration: not given
Notes: RNA with constant flanks, human-mouse chimeric sites, ends assumed
Relative to: input RNA pool
Direction: higher = stronger binding
Shared flanks, not repeated: GGGAGUUCUACAGUCCGACGAUC … CAACAGAGGAUUGAGCAUCA
| Sequence | bound/input enrichment |
| --- | --- |
| GGCCUGGGACCGUCCUGGCUAGUGCAAAAUAGCGGCAGUGGAGGCUCGAGAGGAAAGUUUGUUAGUGGAGGCAGUGGUAGAGGCCGUCAUGUACGGUCCUUUACUCGUAAAAAUCCUUCU | 0.281 ratio |
| GCAAAGGAUGAUGAGGCGGCAGCUGUUGCCCUUUCCUCCCUGAUUCAUGCUUUGGAUGAGUUAAACAUGGUCGCCAUCGUCCGAUAUGCUUAUGACAAAAGAGCUAAUCCUCAAGUUGGU | 0.149 ratio |
| AUGGAGAAGGAUUCUCUGCCUCGCUUUGUGCGCUCUGAAUUUUAUAAGGAGUUAAUCAAGUAGUCAUCUGGUCAGGCUUCCAAAAGUUGCCCUGUGAGUUGAGUUACAUCCUUUGUAGCA | 0.184 ratio |
| UUGCUACUGACUCCCUGGGUCAAGUUCCUGUGGGAAUCAUACAGGCAGUGUUUGGACCUUCUUAGAAACAAUUCUAGAGUAGAGCGCCUGUACCAUGAUAUCGCCCAACAAGCUUUCAAA | 0.233 ratio |
| CUGUGCGGGUGACUGUCCUGGAGUGGCUGGAGUUCCCGCCGGAGCGCGGCCAGACUAAUUUUAGAAAAUGCCAAGUAGGAAGUUUGUUGAGGGUGAAGUGGUCAGAGGUCGAUGGCCUGG | 2.29 ratio |
| AGUGUGCAGGAAUUCAUGACCUUUACAAGUCAACUGAUUGUGGAACGCUCAUCGAAAGGCAGCAGAGCUUCUGUCAAAGAACAAGACUAUCUUUGCCAUGUCUACGUCCGGAGCGACAGU | 0.1 ratio |
| CUUAAUGUUAAUAUUUUUGAAUAAAUGAAGCUAAAAUGUCUGCUUUUGGUACAACACGCAUUAGCGAAAGGUUAAGUAAGUUUUGUUACUGAAGUACUAUUUAACAUCUCAGAAAAAAAC | 0.392 ratio |
| GAUCCACAGUGGUCUGAGGAGCAACUCAUUGCUGCAAAAUUCUGUUUUGCUGGCCUUGUUAUAGGGCAGACUGAAGUGGAUAUCAUGAGUCAUGCCACACAAGCUAUAUUUGAAAUACUG | 0.232 ratio |
| AGAGAAAUGAGAAAGAAUCUUACACAAGAAGAGAUGCAAAGAAUGUCUACUAGAGUCCUUUUGGCGACUCUUUCCAUUCCUAUUACUCCUGAGCGUACUGAUAUUGCUCGACUUUUGGAU | 0.163 ratio |
| CAGCUGCAGACAGAAAAGGAUGAGAAGGAGCUGUAUAAGGUACAUUUGAAGAAUACAGAAAUAGAAAAUACCAAGCUUGUGUCAGAGGUCCAGACUUUAAAGAAUUUAGAUGGAAACAAA | 1.8 ratio |
| UGACAAGGGCACUGCAGAGCCAUGCCUUUCCUUGACAUACAGAAAAAGUUCGGCCUUAACAUAGAUCGGCACUUUAUGUUCCUAAGCGCAGAACAGCCCUAUAAGAACGCCGCUCGGUGC | 0.1 ratio |

Repeated from above (study 1):
| Sequence | fitted relative affinity [z-score] |
| --- | --- |
| TTAGGTCTCGGTATCGGGTAGTGCTAG | 1.39 |
| TCAATTATATCTGTGTTACTGTGCTAG | 0.368 |
| TTCCATTTCTGTTTTTGCTTGTGCTAG | 4.84 |
| CCCAATTGTCTTTTCACTTTGTGCTAG | 1.78 |
| TTAGACCTCAGACTGGATTAGTGCTAG | -0.453 |
| ATTATGTTTGCTTTGTTCTGGTGCTAG | 0.499 |
| TTAGGTATCCTACTTCTTTAGTGCTAG | 4.03 |
| GACGGACTGATTTTCCTGACGTGCTAG | 0.203 |
| GACGGTTTCGGTTTCCGGACGTGCTAG | 10.5 |
| TTAGGACTACTTATCCTTTAGTGCTAG | 0.373 |
| TTAGAACTGGCGTATCGATTAGTGCTA | -0.315 |
| GACGGTCTCGGTATCGGAACGTGCTAG | 3.05 |
